Experimental data collected from several papers.
Parts stem from different laboratories: compare values within a part only.

Study 1
Target: Phosphate system positive regulatory protein PHO4, full length, GST-tagged (PHO4, Saccharomyces cerevisiae, UniProt P07270, residues 1-312)
Method: competition protein-binding microarray
Molecule type: double-stranded DNA, one strand shown
Medium: in vitro
Concentration: 2 µM
Notes: whole 60-bp probe, lowest competitor level
With: Cbf1 competitor, 0.05 µM
Reading: higher = stronger binding
Residues (chain): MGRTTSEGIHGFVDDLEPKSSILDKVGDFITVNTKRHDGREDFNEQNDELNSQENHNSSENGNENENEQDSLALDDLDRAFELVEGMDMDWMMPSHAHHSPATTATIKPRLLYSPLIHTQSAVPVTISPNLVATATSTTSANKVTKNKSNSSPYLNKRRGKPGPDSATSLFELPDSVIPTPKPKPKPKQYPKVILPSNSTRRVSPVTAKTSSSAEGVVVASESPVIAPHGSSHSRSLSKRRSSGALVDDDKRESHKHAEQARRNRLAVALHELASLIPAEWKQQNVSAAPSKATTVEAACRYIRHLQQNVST
Oligonucleotide	fluorescence intensity [a.u.]
CTAACGAAGGTTTTTCACGTGTGATACAAGCCAAGTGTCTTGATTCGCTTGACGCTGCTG	12600
CGTCCTAGTGATTGTCACTCTACTTCCATGAGGAAGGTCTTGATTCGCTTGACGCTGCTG	4260
GGTAAGAAGGTCGCTAGCATGACGCCAGCTCCAAAAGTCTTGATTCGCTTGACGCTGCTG	4810
ACCAACAATTAAAAGCACGTGATGGGTTCCAGGACTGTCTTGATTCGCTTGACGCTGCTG	17700
TGCAAGTTAAAGCGGTCCGTGCCAGATTGGACGAGTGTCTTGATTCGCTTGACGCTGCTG	7430
GTCTTGTCTCATTGACGGGTGGGTGTCCCCACTTCAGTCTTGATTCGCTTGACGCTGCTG	4420
GGTATGGCGCCGGATTGGGTTTTTTCATCAAGAATTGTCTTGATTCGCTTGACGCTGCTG	3140
ACAATAACTGGGAAACCGATCTCCTTGACAGCGGCCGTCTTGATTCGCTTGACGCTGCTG	2620
AAAGCGGTAATTTGCTGCGTGGGTGCAGATATCTATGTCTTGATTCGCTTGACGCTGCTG	8270

Study 2
Target: Hepatocyte nuclear factor 3-alpha (Foxa1, Mus musculus, UniProt P35582, residues 1-468, full length assumed)
Method: EMSA with sequencing
Molecule type: double-stranded DNA, one strand shown
Medium: in vitro
Concentration: 10 and 20 nM
Notes: whole designed probe, mean of two concentrations, ends assumed
Baseline: negative control set to 0
Reading: higher = stronger binding
Target sequence (chain): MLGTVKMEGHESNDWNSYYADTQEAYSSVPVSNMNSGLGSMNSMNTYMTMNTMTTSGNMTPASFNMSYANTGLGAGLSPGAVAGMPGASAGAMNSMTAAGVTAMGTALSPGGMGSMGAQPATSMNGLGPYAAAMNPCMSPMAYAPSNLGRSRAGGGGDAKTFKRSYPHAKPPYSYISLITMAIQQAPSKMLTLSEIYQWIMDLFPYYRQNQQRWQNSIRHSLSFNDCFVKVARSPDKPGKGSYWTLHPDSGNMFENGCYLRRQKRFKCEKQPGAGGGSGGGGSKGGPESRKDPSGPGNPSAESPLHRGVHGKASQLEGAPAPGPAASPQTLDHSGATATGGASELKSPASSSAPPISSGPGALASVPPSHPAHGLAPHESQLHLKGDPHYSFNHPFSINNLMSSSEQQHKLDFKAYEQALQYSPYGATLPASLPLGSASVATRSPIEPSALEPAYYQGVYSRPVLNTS
Oligonucleotide	normalised bound fraction [ratio]
GTGAGCGGTGCCCATTGATGGGGAACAGATGTAAAACAAAATGGATGTAGACAGCCGATTGTAGACGTAAAGCAAAATGGGTGTAGACAGCTAATTGACTCAACCATACTCTGGGCATGAAATTACTCAATGCTACAATGGGCTGAGTCATGCTCGAGGTGCTGGAGAGATTTCTGCCAAGAAAAGAGAGAAAAACCCCTGTCCTCCCACATCTGACGCTTTCACTGGGATCGTGGGGAC	-0.0398
GTGAGCGGTGCCCATTGATGGGGAACCTAGTGTTTCTGAAAGTCAGTTCTGTAGCCACTGGGATCACCTAATATGCAGATAACCTTATGACGCAGCATTAGCTGATGAACTCTCTGGCTTTGTTTACTTTGAGATGTTTTAAAATTTCATTGGATTGAGTGAACTCTGCCATCTTTTAGCAACTATTTTTCTCCTATTCACAGTAGCCTAGATTAAATATTTCACTGGGATCGTGGGGAC	0.479
GTGAGCGGTGCCCATTGATGGGGAACTTGAGTATAGACCCAATAATAGGATTGTTGGGTCAAATTTCTGTTTTTAGCTCTTTGAAGAAGCGCCACATTTCTTCCCACAATGGTTGAACTTATTTACACACCTGCCAAGACTGTGTAAGTGTTCTCTTTTCTCCACAACCTCTCCAGCATCTTTTATTTTTTGACTTTTTTTGTGTGTTCTACTTTGTTATTTCACTGGGATCGTGGGGAC	0.21

Study 3
Target: Interferon regulatory factor 7, full length, phosphomimetic (IRF7, Homo sapiens, UniProt Q92985, residues 1-503, S471D/S472D/S475D/S476D/S477D/S483D/S484D/S487D)
Method: protein-binding microarray
Molecule type: double-stranded DNA, one strand shown
Medium: in vitro
Concentration: 2200 nM top
Notes: 60-bp whole probe
With: salmon DNA 0.4 mg/ml
Baseline: random background probes
Reading: higher = stronger binding
Shared flanks, not repeated: GCCTAGCAC … GTCTTGATTCGCTTGACGCTGCTG
Residues (chain): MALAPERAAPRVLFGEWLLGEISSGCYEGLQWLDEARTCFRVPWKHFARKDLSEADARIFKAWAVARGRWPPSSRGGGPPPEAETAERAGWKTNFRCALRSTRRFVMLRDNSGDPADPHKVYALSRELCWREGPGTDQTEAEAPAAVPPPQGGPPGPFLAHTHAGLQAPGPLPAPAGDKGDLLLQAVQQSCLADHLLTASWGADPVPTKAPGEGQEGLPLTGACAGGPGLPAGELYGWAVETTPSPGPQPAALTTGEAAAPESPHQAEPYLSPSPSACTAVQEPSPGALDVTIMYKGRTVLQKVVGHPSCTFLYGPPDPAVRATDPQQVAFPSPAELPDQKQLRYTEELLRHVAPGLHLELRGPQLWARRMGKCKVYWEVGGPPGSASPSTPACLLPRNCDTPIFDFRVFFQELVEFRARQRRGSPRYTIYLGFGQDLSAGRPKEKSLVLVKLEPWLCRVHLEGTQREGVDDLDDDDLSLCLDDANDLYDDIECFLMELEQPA
Oligonucleotide	fitted relative affinity [z-score]
TTAGGTATCGGGTATCGCTTAGTGCTA	0.659
GACGAACTGGGGTATTGAGACGTGCTA	0.324
TTAGATTTCAGGTATCGATTAGTGCTA	0.994
TCAAAGCTCCTATCTTATACTGTGCTA	0.0827
TTAGGTATCCTCCTGCTTTAGTGCTAG	0.839
TTTTTTTTCTACTTCTGTTTGTGCTAG	3.95
TTAGGTAACCTACTGCTTTAGTGCTAG	0.161

Other studies, line by line
Substance	target	assay	system	setting	how to read	measurement	value
PhoQ, residues 284 288 289 292 302 303 TLSLKA	PhoP, residues 12 14 15 18 19 LHHSG (Escherichia coli, UniProt P23836)	Sort-seq, item: YFP reporter	E. coli	PhoQ-PhoP variant library, with: 10 µM Mg2+	baseline: high Mg2+ state, higher = stronger signaling	fold induction	0.946

Repeated from above (study 1):
Oligonucleotide	fluorescence intensity [a.u.]
TGCAAGTTAAAGCGGTCCGTGCCAGATTGGACGAGTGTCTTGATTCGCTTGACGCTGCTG	7430
